Measured values pooled from the literature.
± gives the spread as reported.
STING1 H232R: Stimulator of interferon genes protein (STING1, Homo sapiens, UniProt Q86WV6, H232R)
Chain of UniProt Q86WV6 (whole entry, unmodified, looked up): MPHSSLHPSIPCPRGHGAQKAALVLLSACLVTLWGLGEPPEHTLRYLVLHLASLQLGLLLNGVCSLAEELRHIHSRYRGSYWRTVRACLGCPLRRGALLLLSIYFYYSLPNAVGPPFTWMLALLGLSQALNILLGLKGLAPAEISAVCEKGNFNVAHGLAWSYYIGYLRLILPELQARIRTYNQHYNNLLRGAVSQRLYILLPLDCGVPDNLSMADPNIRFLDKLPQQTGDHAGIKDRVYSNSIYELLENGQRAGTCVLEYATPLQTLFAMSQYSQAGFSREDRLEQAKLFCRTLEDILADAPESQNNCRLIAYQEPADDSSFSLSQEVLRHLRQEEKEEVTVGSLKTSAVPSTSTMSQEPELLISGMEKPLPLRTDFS
Cnr2: Cannabinoid receptor 2 (Cnr2, Mus musculus, UniProt P47936)
Chain of UniProt P47936 (whole entry, looked up): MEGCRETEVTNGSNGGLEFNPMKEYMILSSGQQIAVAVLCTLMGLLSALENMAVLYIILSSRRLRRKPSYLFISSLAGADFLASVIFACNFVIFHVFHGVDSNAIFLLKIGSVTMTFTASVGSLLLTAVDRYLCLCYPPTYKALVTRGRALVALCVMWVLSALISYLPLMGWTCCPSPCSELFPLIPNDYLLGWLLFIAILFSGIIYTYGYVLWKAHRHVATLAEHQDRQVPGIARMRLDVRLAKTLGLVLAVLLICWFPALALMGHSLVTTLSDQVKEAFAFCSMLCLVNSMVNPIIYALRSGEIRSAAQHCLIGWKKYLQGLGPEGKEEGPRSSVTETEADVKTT
OR5K1: OR5K1 (Homo sapiens, UniProt Q8NHB7)
Chain of UniProt Q8NHB7 (whole entry, looked up): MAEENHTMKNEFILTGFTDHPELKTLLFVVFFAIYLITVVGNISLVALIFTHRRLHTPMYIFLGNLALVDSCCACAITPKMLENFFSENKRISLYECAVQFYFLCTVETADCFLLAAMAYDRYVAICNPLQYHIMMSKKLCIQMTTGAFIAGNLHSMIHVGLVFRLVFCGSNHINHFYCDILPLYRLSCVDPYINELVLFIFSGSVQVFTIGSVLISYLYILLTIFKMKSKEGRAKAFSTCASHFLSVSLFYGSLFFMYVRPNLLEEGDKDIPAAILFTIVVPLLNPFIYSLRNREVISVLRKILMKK
uncharacterized protein: uncharacterized protein (Aplysia californica, UniProt A0ABM0K1K5)
Chain of UniProt P43220 (whole entry, unmodified, looked up): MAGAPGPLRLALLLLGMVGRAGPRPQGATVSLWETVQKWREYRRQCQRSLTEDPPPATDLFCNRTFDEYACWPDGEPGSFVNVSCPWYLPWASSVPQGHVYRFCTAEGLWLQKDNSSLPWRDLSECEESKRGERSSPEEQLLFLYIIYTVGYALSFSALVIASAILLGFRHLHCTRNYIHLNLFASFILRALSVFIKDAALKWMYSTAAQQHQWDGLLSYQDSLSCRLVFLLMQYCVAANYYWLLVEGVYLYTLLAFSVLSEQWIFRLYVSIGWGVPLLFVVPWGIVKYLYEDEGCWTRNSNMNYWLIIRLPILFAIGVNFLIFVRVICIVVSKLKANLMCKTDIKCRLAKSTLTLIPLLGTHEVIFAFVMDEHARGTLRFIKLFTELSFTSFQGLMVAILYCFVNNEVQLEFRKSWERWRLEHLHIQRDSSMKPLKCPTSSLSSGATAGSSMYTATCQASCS
Chain of UniProt A7T1N0 (whole entry, unmodified, looked up): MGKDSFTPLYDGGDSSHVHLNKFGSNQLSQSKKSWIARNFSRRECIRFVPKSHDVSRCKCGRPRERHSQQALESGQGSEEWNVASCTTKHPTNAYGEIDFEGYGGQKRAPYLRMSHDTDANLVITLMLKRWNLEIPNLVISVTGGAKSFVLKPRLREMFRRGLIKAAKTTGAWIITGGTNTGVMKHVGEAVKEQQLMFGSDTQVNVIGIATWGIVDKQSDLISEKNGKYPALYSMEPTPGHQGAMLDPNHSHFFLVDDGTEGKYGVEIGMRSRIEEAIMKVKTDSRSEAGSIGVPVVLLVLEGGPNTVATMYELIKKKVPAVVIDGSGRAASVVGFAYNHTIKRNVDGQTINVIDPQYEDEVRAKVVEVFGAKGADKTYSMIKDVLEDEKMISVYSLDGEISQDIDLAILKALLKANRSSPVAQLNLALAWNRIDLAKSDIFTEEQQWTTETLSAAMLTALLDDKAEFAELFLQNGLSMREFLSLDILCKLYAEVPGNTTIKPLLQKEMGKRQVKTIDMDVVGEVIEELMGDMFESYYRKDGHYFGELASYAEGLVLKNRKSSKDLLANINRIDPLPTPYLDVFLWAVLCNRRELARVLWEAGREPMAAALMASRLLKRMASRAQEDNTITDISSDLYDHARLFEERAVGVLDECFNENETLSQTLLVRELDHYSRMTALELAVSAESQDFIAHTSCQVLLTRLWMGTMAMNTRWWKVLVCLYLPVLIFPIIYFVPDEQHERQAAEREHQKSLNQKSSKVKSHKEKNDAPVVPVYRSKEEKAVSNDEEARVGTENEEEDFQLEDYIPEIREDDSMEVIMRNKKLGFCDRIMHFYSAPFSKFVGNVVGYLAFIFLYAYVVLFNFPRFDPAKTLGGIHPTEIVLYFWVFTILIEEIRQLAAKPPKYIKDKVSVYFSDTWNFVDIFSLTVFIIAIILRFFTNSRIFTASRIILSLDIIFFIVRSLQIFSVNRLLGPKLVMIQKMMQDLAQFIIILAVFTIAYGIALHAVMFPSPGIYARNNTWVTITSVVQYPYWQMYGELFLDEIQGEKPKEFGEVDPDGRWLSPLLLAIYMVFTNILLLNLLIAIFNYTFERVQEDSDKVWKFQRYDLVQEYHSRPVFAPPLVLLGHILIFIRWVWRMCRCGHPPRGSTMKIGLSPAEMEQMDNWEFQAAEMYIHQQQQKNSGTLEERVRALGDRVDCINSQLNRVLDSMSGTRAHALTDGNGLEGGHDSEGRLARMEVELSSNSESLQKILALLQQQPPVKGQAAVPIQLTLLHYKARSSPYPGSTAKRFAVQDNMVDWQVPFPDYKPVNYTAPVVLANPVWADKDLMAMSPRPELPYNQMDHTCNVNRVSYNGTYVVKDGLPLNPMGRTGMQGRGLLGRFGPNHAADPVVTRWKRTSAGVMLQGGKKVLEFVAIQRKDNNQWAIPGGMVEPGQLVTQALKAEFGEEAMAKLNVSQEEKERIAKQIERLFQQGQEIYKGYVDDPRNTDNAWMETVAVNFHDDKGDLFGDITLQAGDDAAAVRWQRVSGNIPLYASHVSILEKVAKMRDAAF
Chain of UniProt P47871 (whole entry, looked up): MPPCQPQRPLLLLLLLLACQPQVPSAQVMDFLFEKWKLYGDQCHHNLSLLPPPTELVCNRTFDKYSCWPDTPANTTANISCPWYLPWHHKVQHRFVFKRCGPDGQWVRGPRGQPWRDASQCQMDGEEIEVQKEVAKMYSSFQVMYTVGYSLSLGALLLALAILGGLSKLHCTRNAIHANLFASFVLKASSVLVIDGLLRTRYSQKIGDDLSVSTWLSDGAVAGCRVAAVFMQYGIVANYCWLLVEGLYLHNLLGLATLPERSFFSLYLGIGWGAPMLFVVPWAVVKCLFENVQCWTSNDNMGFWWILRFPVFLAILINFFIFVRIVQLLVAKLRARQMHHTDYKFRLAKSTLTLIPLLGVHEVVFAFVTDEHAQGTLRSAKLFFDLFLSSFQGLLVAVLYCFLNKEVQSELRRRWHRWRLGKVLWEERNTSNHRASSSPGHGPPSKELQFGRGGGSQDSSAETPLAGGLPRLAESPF
Chain of UniProt P17858 (whole entry, looked up): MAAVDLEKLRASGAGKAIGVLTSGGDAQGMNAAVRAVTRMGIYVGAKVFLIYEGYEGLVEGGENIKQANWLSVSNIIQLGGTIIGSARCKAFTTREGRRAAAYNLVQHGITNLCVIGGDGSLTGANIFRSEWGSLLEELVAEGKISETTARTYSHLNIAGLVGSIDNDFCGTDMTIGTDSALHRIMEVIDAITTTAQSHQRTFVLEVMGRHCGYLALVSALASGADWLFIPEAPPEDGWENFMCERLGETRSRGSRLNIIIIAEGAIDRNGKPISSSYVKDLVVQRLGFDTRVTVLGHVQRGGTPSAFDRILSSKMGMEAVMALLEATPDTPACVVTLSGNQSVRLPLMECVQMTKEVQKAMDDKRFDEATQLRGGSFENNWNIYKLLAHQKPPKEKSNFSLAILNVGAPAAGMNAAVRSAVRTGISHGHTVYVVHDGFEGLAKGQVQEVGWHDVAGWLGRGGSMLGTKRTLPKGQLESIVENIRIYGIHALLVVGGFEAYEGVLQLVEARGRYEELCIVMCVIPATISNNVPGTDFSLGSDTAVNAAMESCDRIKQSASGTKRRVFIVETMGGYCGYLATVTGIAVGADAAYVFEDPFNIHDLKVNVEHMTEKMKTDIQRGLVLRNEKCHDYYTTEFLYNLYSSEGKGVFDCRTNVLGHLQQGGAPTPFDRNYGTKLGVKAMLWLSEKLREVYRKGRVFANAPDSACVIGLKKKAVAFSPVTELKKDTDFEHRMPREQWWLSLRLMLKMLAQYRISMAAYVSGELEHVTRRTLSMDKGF
Chain of UniProt Q92847 (whole entry, looked up): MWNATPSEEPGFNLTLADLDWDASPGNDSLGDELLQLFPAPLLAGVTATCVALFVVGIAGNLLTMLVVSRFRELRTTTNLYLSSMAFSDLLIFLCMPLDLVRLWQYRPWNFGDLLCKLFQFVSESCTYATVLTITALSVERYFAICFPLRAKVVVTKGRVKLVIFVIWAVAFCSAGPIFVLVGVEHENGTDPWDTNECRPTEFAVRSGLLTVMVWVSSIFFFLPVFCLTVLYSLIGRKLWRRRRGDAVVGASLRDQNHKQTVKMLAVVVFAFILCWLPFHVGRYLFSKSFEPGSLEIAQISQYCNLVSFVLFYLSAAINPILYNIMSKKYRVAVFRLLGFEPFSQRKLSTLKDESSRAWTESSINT

SMILES	target	test	test system	conditions	EC50
CC(=O)c1ccc(-c2ccc(C(=O)N[C@@H](CCNC(=O)c3ccc([N+](=O)[O-])o3)c3nc4ccccc4[nH]3)o2)cc1	STING1 H232R	reporter gene, inhibitor	THP1-Dual KI-hSTING-R232	24 h, 1 h preincubation, together with: diABZI 500 nM	9.8 µM
CCOC(=O)[C@](CC)(CCCSCCOCCOCCNC(=O)OC(C)(C)C)NC(=O)c1ccc(C2CC2)c(Cc2ccc(F)cc2)n1	Cnr2	cAMP, agonist	–	–	0.019 µM
O=C(N[C@@H](CCNC(=O)c1ccc([N+](=O)[O-])o1)c1nc2ccccc2[nH]1)c1noc(-c2cc(F)ccc2F)n1	STING1 H232R	reporter gene, inhibitor	THP1-Dual KI-hSTING-R232	24 h, 1 h preincubation, together with: diABZI 500 nM	11.4 µM
Nc1ncnc2c1ncn2[C@@H]1O[C@H](COP(=O)(O)OP(=O)(O)OC[C@H]2OC(O)[C@H](O)[C@@H]2O)[C@@H](O)[C@H]1OP(=O)(O)O (some centres unmarked)	TRPM2 (Nematostella vectensis, UniProt A7T1N0, N628C)	agonist	–	–	0.24 ± 0.02 µM
CC1CCc2nccnc21 (centres unmarked)	OR5K1	cAMP luminescence, agonist	HEK293	–	≥ 1500 µM
O=C(Cc1ccc(OCc2ccccc2)cc1)NC1(C(=O)O)CCN(C(=O)c2ccc(-c3cccc(Cl)c3)cc2)CC1	S1PR1 (Homo sapiens, UniProt P21453)	cAMP, agonist, luciferase	–	–	> 10 µM
O=C(NC[C@@H](Cc1ccc(F)cc1)N1CCC(O)(C(F)(F)F)CC1)C1(c2ccc(Cl)cc2)CCCC1	TRPA1 (Homo sapiens, UniProt O75762, M953V)	–	–	–	0.11 µM
CC1=NC(C)C(C)S1 (centres unmarked)	OR5K1	cAMP, agonist	–	–	102 µM
O=C(N[C@@H](CCCCNC(=O)c1ccc([N+](=O)[O-])o1)c1nc2ccccc2[nH]1)c1ccc(-c2ccccc2)cn1	STING1 H232R	reporter gene, inhibitor	THP1-Dual KI-hSTING-R232	24 h, 1 h preincubation, together with: diABZI 500 nM	3.2 µM
O=C1C2=C(CCN(Cc3ccccc3)C2)N2CCN=C2N1Cc1ccc(C(F)(F)F)cc1	GPR132 (Homo sapiens, UniProt Q9UNW8)	agonist	–	–	0.405 µM
CCOC(=O)C(CC)(CCCSCCOCCOCCN=[N+]=[N-])NC(=O)c1ccc(C2CC2)c(Cc2ccc(F)cc2)n1 (centres unmarked)	Cnr2	cAMP, agonist	–	–	0.0054 µM
O=C(NCCCC[C@H](NC(=O)c1cccc2ccccc12)c1nc2ccccc2[nH]1)c1ccc([N+](=O)[O-])o1	STING1 H232R	reporter gene, inhibitor	THP1-Dual KI-hSTING-R232	24 h, 1 h preincubation, together with: diABZI 500 nM	25.8 µM
CCOC(=O)C(CC)(CCCSCCOCCNc1ccc([N+](=O)[O-])c2nonc12)NC(=O)c1ccc(C2CC2)c(Cc2ccc(F)cc2)n1 (centres unmarked)	Cnr2	cAMP, agonist	–	–	0.181 µM
O=C(N[C@@H](CCCCNC(=O)c1ccc([N+](=O)[O-])o1)c1nc2ccccc2[nH]1)c1ccc2ccccc2c1	STING1 H232R	reporter gene, inhibitor	THP1-Dual KI-hSTING-R232	24 h, 1 h preincubation, together with: diABZI 500 nM	11.1 µM
CCOC(=O)C(CC)(CCCSCCOCCNC(=O)OC(C)(C)C)NC(=O)c1ccc(C2CC2)c(Cc2ccc(F)cc2)n1 (centres unmarked)	Cnr2	cAMP, agonist	–	–	0.015 µM
NCC(=O)N[C@@H](Cc1ccccc1)C(=O)N[C@@H](Cc1ccccc1)C(N)=O	uncharacterized protein	IP1 accumulation, agonist	CHO-K1 cells, transfected	inactive, value is lower bound	> 501 µM
O=S(=O)(c1ccc2c(c1)OCO2)n1cc(CCCCN2CCC(=C(c3ccc(F)c(F)c3)c3ccc(F)c(F)c3)CC2)nn1	PFKL (Homo sapiens, UniProt P17858)	enzyme activity, activator, ADP-Glo	–	1	0.619 µM
COc1cc(C2C(NC(=O)c3ccc(NC(=O)OC(C)(C)C)cc3)(C(=O)O)C(c3ccc(OC(=O)c4cccs4)c(OC)c3)C2(NC(=O)c2ccc(NC(=O)OC(C)(C)C)cc2)C(=O)O)ccc1OC(=O)c1cccs1 (centres unmarked)	GLP1R (Homo sapiens, UniProt P43220, K197A)	cAMP, agonist	–	–	0.282 µM
CCOC(=O)[C@](CC)(CCCSCCOCCOCCN)NC(=O)c1ccc(C2CC2)c(Cc2ccc(F)cc2)n1	Cnr2	cAMP, agonist	–	–	0.0032 µM
NC(=O)C[C@H](N)C(=O)N[C@@H](Cc1c[nH]c2ccccc12)C(=O)N[C@@H](Cc1ccccc1)C(N)=O	uncharacterized protein	IP1 accumulation, agonist	CHO-K1 cells, transfected	inactive, value is lower bound	> 501 µM
O=C(N[C@@H](CCNC(=O)c1ccc([N+](=O)[O-])o1)c1nc2ccccc2[nH]1)c1ccc(-n2ccnc2)cc1	STING1 H232R	reporter gene, inhibitor	THP1-Dual KI-hSTING-R232	24 h, 1 h preincubation, together with: diABZI 500 nM	25.1 µM
COc1ccc(C(=O)c2c(C(=O)NCCCN(C)C)oc3ccc(Cl)cc3c2=O)cc1OC	GHSR (Homo sapiens, UniProt Q92847)	SRF-RE reporter gene	HEK293T	–	0.055 µM
O=C(N[C@@H](CCCCNC(=O)c1ccc([N+](=O)[O-])o1)c1nc2ccccc2[nH]1)c1ccc(-c2cnco2)cc1	STING1 H232R	reporter gene, inhibitor	THP1-Dual KI-hSTING-R232	24 h, 1 h preincubation, together with: diABZI 500 nM	6.6 µM
CCCCCCCC/C=C\CCCCCCCC(=O)OCC(O)COP(=O)(O)O (centres unmarked)	LPAR1 (Homo sapiens, UniProt Q92633, W271F)	Gi activation, agonist, NanoBiT G-protein dissociation	HEK293T	W271F mutant	0.0389 µM
O=C(N[C@@H](CCCCNC(=O)c1ccc([N+](=O)[O-])o1)c1nc2ccccc2[nH]1)c1ccc(-c2cnccn2)cc1	STING1 H232R	reporter gene, inhibitor	THP1-Dual KI-hSTING-R232	24 h, 1 h preincubation, together with: diABZI 500 nM	5.4 µM
CC(C)C[C@H](NC(=O)[C@H](Cc1ccccc1)NC(=O)[C@H](CCCNC(=N)N)NC(=O)[C@H](CCC(N)=O)NC(=O)[C@H](CC(C)C)NC(=O)C(C)(C)NC(=O)[C@H](C)NC(=O)[C@H](CCC(=O)O)NC(=O)[C@H](CCC(=O)O)NC(=O)[C@H](CCCCNC(=O)COCCOCCNC(=O)COCCOCCNC(=O)CC[C@H](NC(=O)CCCCCCCCCCCCCCCCCCC(=O)O)C(=O)O)NC(=O)[C@H](CC(C)C)NC(=O)[C@H](Cc1ccc(O)cc1)NC(=O)[C@H](CO)NC(=O)[C@@H](NC(=O)[C@H](CC(=O)O)NC(=O)[C@H](CO)NC(=O)[C@@H](NC(=O)[C@H](Cc1ccccc1)NC(=O)[C@@H](NC(=O)CNC(=O)[C@H](CCC(=O)O)NC(=O)C(C)(C)NC(=O)[C@@H](N)Cc1c[nH]cn1)[C@@H](C)O)[C@@H](C)O)C(C)C)C(=O)N[C@@H](CCC(=O)O)C(=O)N[C@@H](Cc1c[nH]cn1)C(=O)N[C@@H](CC(C)C)C(=O)N[C@H](C(N)=O)C(C)C	Glucagon receptor (GCGR, Homo sapiens, UniProt P47871)	agonist	–	cross-reactivity	> 5 µM

A few entries again:
SMILES	target	test	test system	conditions	EC50
CC(=O)c1ccc(-c2ccc(C(=O)N[C@@H](CCNC(=O)c3ccc([N+](=O)[O-])o3)c3nc4ccccc4[nH]3)o2)cc1	STING1 H232R	reporter gene, inhibitor	THP1-Dual KI-hSTING-R232	24 h, 1 h preincubation, together with: diABZI 500 nM	9.8 µM
CCOC(=O)[C@](CC)(CCCSCCOCCOCCNC(=O)OC(C)(C)C)NC(=O)c1ccc(C2CC2)c(Cc2ccc(F)cc2)n1	Cnr2	cAMP, agonist	–	–	0.019 µM
O=C(N[C@@H](CCNC(=O)c1ccc([N+](=O)[O-])o1)c1nc2ccccc2[nH]1)c1noc(-c2cc(F)ccc2F)n1	STING1 H232R	reporter gene, inhibitor	THP1-Dual KI-hSTING-R232	24 h, 1 h preincubation, together with: diABZI 500 nM	11.4 µM
